# Published values pooled from the literature.
# Each line is one published result; not all experiments were run side by side. Values joined by “and” are separate records of one study, mostly repeats; a detail may differ. ± marks the error that the study gave.
Structure (SMILES),assay,test system,conditions,CL/F
C=CC[C@@H]1/C=C(\C)C[C@H](C)C[C@H](OC)[C@H]2O[C@@](O)(C(=O)C(=O)N3CCCC[C@H]3C(=O)O[C@H](/C(C)=C/[C@@H]3CC[C@@H](O)[C@H](OC)C3)[C@H](C)[C@@H](O)CC1=O)[C@H](C)C[C@@H]2OC,,healthy adults,"oral, geometric mean",29.1 L/h and 18.7 L/h
CCCCCCCCCCCCCCCC(=O)N[C@@H](CCC(=O)NCCCC[C@@H]1NC(=O)[C@H]([C@@H](C)CC)NC(=O)[C@@H](NC(=O)[C@@H]2CCCN2C(=O)[C@H](Cc2ccccc2)NC(=O)[C@H](Cc2c[nH]cn2)NC(=O)[C@@H](NC(=O)[C@H](CC(=O)O)NC(=O)CC(C)C)[C@@H](C)O)CSSC[C@@H](C(=O)N[C@@H](CCCCN)C(N)=O)NC(=O)CNC(=O)[C@H](CCCCN)NC(=O)[C@H](CO)NC(=O)[C@H](CCCNC(=N)N)NC(=O)[C@@H]2CCCN2C(=O)[C@H](CCC(=O)O)NC(=O)[C@H](Cc2ccccc2)NC1=O)C(=O)O,,"healthy volunteers, plasma","subcutaneous, 30 mg single, lyophilised formulation",1.2 ± 0.299 L/h
Cn1cncc1-c1c(F)cncc1NC(=O)c1c(N)nn2cc(F)cnc12,population PK model,patients with solid tumours,oral,55.7 L/h
CO[C@H]1CC[C@H](N2C(=O)CNc3ncc(-c4ccc(C(C)(C)O)nc4)nc32)CC1,,"patients, plasma","45 mg, day -1, geometric mean",26.6 L/h
O=C(c1cccnc1-c1ccncc1)N1CCC(O)(Cc2ccccc2)CC1,population PK model,healthy adults,"oral, 100 mg",277 L/h
O=C(c1cccnc1-c1ccncc1)N1CCC(O)(Cc2ccccc2)CC1,,"healthy Japanese adults, plasma",1200 mg single dose,120 L/h
CC[C@@H]1CN(C(=O)NCC(F)(F)F)C[C@@H]1c1cnc2cnc3[nH]ccc3n12,population PK model,"healthy, RA and CD subjects, plasma","oral, immediate-release formulation",39.6 L/h
O=C(Nc1cnccc1Cl)N1CCN(Cc2ccc3c(c2)OC(F)(F)O3)CC1,,"healthy young men, plasma","oral, 75 mg once daily, day 10",6.98 L/h
OC[C@H]1O[C@@H](c2ccc(F)c(Cc3cc4ccccc4s3)c2)[C@H](O)[C@@H](O)[C@@H]1O,,Japanese type 2 diabetes patients,"oral, 100 mg/day, day 14",9.8 ± 2.24 L/h
N#CC[C@H](C1CCCC1)n1cc(-c2ncnc3[nH]ccc23)cn1,,"children, plasma","oral, mean",14.8 ± 5.9 L/h
C[C@@H](N)C1CCN(S(=O)(=O)c2cccc3cnccc23)CC1,,"healthy volunteers, fasted, plasma","oral, 250 mg",3370 L/h

# For quick reference, copied from above:
Structure (SMILES),assay,test system,conditions,CL/F
O=C(c1cccnc1-c1ccncc1)N1CCC(O)(Cc2ccccc2)CC1,,"healthy Japanese adults, plasma",1200 mg single dose,120 L/h
